Measured values pooled from the literature.
Numbered parts are unrelated; each lists some results of a single study. Positions count from the first letter of the parent shown.

Sample 1
Molecule: PhoQ, residues 284 288 289 292 302 303 AGHLVA
Method: Sort-seq
Refers to: YFP reporter
Sample: E. coli
Setting: PhoQ-PhoP variant library
With: 10 µM Mg2+
Reference: high Mg2+ state
Reading: higher = stronger signaling
Measurement: fold induction
target = PhoP, residues 12 14 15 18 19 STHWV (Escherichia coli, UniProt P23836); result = 1.02
target = PhoP, residues 12 14 15 18 19 QYCSL (Escherichia coli, UniProt P23836); result = 6.32
target = PhoP, residues 12 14 15 18 19 SHWTV (Escherichia coli, UniProt P23836); result = 0.978

Sample 2
Target: Interferon regulatory factor 3, full length, phosphomimetic (IRF3, Homo sapiens, UniProt Q14653, residues 1-427, S386D/S396D/S398D/S402D/T404D/S405D)
UniProt Q14653, sequence (whole entry, unmodified, looked up): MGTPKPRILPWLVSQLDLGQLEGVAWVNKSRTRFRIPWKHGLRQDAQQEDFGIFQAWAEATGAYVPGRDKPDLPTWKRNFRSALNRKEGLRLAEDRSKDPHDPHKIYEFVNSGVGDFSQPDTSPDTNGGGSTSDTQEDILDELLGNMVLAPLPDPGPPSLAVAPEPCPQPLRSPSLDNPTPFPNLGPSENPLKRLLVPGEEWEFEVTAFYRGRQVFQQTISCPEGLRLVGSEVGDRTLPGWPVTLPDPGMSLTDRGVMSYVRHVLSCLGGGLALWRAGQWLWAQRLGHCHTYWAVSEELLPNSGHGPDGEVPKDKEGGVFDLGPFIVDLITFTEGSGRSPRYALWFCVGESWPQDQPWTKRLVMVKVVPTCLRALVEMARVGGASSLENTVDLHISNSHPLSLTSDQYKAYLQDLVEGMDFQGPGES
Method: protein-binding microarray
Molecule type: double-stranded DNA, one strand shown
Sample: in vitro
Concentration: 2540 nM top
Setting: 60-bp whole probe
With: salmon DNA 0.4 mg/ml
Reference: random background probes
Reading: higher = stronger binding
Measurement: fitted relative affinity
Strand = GCCTAGCACATATTTCCCAGAACTGGAGTGGTGCTAGTCTTGATTCGCTTGACGCTGCTG; result = 1.16 z-score
Strand = GCCTAGCACTCAAGTCTCAATATTAGACTGTGCTAGGTCTTGATTCGCTTGACGCTGCTG; result = 0.257 z-score
Strand = GCCTAGCACGACGATATCAGTATTGAGACGTGCTAGGTCTTGATTCGCTTGACGCTGCTG; result = 0.887 z-score
Strand = GCCTAGCACCTAGGTTCCCTTTTCCTTTAGTGCTAGGTCTTGATTCGCTTGACGCTGCTG; result = 7.09 z-score

Sample 3
Target: CCNB1, cyclin fold, Cln2 fusion (human)
Method: yeast growth competition, sequencing
Sample: yeast
Setting: weak parent motif
Reference: not given
Reading: higher = stronger binding
Measurement: normalised enrichment score
Parent: WEE1 docking peptide (human); HKTFRKLRLFDTP
Change = HKTTRKLRLFDTP [F4T]; result = 0.808
Change = HKTFRKNRLFDTP [L7N]; result = 1.3
Change = HKTFRKLRMFDTP [L9M]; result = 0.344
Change = HKTFRKLGLFDTP [R8G]; result = 0.22
Change = HKTFRKLRLFDTV [P13V]; result = 0.574
Change = HKTFRKLRLFDTL [P13L]; result = 0.0098

Sample 4
Target: Fragile X messenger ribonucleoprotein 1, C-terminal low-complexity region (Fmr1, Mus musculus, UniProt P35922)
Method: RNA Bind-n-Seq
Molecule type: RNA
Sample: in vitro
Concentration: 200 nM
Setting: whole 134-nt RNA, ends assumed
With: 150 mM KCl
Reference: input library
Reading: higher = stronger binding
Measurement: log2 enrichment
Constant ends, left off below: GGGAGUUCUACAGUCCGACGAUC … UGGAAUUCUCGGGUGUCAAGG
Strand = UGGGAGGUGGAAUUUGUUUAUUUUUUUAGCUCAUUUCCAGGGGUGGGAAUUUUUUUUUAAUAUGUGUCAUGAAUAAAGUUGUUUUUGAAA; result = -0.00928
Strand = GAAAUUUGGUUAUGUGGAUUUUGAAUCUGCUGAAGACCUGGAGAAAGCGUUGGAACUCACUGGUUUGAAAGUCUUUGGCAAUGAAAUUAA; result = -2.06
Strand = UCAAGUCCUGUGCUACACAUCGUAUGUACCGAAUCGGUUUGGUUUGGGGUUUGGGAAAGUAUUAUGUUACGCCGUUCGGAUCUGCACUUC; result = -0.685
Strand = CACAGACAACACGCACCCACACAGACACAGAGGGAAGGGGUUGGGAUGGGGACAGGGUGCACAGCAGGGCGGGGUGGGACCCCAGCCCCU; result = 1.17
Strand = UCCUGUGCUACACAUCGUAUGUACCGAAUCGGGUUUUUUGGGUUUUUUGGUUUUUUGGGAAAGUAUUAUGUUACGCCGUUCGGAUCUGCA; result = -0.109
Strand = UGGCAUGGAUCCAGUGGGCUGAGACCACCCUCAUUCAGCGGGAUCAGGAGCCAAUCCCGCAGAACAUUGACCGAGUUAAAGCCCUUAUCG; result = -1.11
Strand = AGUCCUGUGCUACACAUCGUAUGUACCGAAUCAAAUUUAAAUUUUUUUAAAUUUAAAAAAGUAUUAUGUUACGCCGUUCGGAUCUGCACU; result = -1.6

Some of these lines once more (sample 3):
Change = HKTFRKLRMFDTP [L9M]; result = 0.344
Change = HKTFRKLRLFDTV [P13V]; result = 0.574
